Assay results from different studies.
Each numbered part is a random draw from the data of one study; scales do not carry over between parts. Changes are numbered by the printed parent chain.

Study 1
Target: Sal-like protein 4, full length isoform B (SALL4, Homo sapiens, UniProt Q9UJQ4-2, residues 1-616)
Technique: universal PBM
Form: double-stranded DNA, one strand shown
Sample: in vitro
Concentration: not given
Notes: 8-mer, flanks averaged, mean of replicates
Direction: higher = stronger binding
Target sequence (chain): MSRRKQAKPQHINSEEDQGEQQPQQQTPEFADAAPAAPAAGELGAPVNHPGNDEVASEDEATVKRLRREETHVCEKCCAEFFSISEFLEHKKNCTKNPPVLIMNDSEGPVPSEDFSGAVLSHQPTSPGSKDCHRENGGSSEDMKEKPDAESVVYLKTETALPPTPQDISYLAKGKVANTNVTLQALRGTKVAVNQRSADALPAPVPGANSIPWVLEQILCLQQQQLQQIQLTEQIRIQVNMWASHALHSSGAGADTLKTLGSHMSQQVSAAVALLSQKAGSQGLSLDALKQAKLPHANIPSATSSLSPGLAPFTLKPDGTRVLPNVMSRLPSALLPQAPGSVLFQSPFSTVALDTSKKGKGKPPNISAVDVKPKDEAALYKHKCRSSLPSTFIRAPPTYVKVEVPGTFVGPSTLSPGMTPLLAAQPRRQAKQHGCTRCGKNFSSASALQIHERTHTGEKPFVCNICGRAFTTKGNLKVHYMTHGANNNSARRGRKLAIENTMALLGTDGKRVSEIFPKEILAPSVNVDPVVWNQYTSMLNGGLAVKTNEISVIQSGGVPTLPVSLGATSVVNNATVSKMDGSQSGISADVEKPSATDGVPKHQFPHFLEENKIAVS
Strand | E-score
GGCATAGA | -0.103
CGAATACA | 0.12
GAAATTAC | 0.283
CTAGGATC | -0.163
ACGACCAG | 0.0147
CTAGACTC | -0.0961
CCGGCAGC | -0.324
CCTTTGGC | -0.174
CGACACTC | -0.0765
AGGGTAAT | 0.0898
GCGCTCAA | -0.164
CGCATACG | 0.0235
AATCCCGC | -0.106
GTACCCCA | -0.0976
GACGAGCA | -0.0145
CTTTTAAA | 0.199
ATGTGTGA | 0.142
CGTACACG | 0.0386
GAAGCGCA | -0.252
TATCACAA | 0.227
TCATGTCA | 0.126
AAAGAAGG | 0.0102
TAAGTATA | 0.308
CAACTCCA | -0.0987
GGGATTTA | 0.122

Study 2
Target: RING finger protein unkempt homolog, zinc fingers 1-6, SBP tag (UNK, Homo sapiens, UniProt Q9C0B0, residues 30-357)
Chain of UniProt Q9C0B0 (30-357, looked up): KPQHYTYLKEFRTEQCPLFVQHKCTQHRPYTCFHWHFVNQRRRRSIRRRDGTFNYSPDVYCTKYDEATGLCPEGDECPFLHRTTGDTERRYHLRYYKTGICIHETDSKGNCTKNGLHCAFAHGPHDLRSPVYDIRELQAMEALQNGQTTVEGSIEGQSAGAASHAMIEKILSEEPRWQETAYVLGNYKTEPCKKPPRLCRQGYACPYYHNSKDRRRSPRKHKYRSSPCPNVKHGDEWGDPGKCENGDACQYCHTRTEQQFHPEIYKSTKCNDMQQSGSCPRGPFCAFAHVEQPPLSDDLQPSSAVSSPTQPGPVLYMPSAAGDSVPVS
Technique: RNA Bind-n-Seq
Form: RNA
Sample: in vitro
Concentration: 100 nM
Notes: RNA with constant flanks, vertebrate orthologous sites, ends assumed
Reference: input RNA pool
Direction: higher = stronger binding
Strand | bound/input enrichment [ratio]
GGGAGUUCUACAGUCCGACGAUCAUUUCAAAUGUAGUUAGUUAUAUUUAAUGACCUCAUUCCUGAGUUCCUUUUUCAUUAAUGUAGCAUUCAUUUAUUUCUACUUGCUGUUUUAAUAAUAUGAAUAAAUAGAAGAUCUGUGCUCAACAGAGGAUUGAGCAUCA | 0.401
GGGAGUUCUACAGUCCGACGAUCUAGAAUUAUGAAGAAAAAAAAAUACCAAUAGAAUUUACGUUUAAUUCUCCUCCCCCCGCCUAUCGAAAAGAUUUUUCAAGACAGAUCAUUCAGUGUGUGAGUGUGCGUGCACAUGUUAUACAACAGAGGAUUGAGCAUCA | 2.05
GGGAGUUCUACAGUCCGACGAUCUAUGAUGAUUUUCAUUCUUUUUUUUUUUCCUGAUUUUCAAAGCUCCUCCCCCUUUUUUAGGCAUAUGUAGUAACAUUAGAGUUAAUUUGGACAACUUUGAUUCUAUAAAGAGAAAACAGCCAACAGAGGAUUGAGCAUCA | 0.836
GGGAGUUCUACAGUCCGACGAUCCGUGUCCUUGCUACUGUGAUAUUUAAAAUAUCCACAGUACUCACUUCUUCCAAAUGAUUCUAACAGUUGCUUAGAAGUGUCUUUCUCUUACCUGUUAUUUAUCAAUUUUUCUCAGUAUUUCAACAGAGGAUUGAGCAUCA | 0.418
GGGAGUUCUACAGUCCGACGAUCAAUAGUUUUAAGCUUGUUUGCACAGCUUUUUUUUUCCAUUGGAAAUGGAAUCCAUUGCCUUAGGUCUUUUUAAAUAGUGUAUUGUUAUCGUUGGGCUGGCUCUACGCUUGAAAUCCAGUUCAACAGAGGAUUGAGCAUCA | 2.06
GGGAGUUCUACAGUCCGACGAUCUAUUUUCUUAUUUUAGGUAUCAUUGCCCAGUGCCCAAGAUCUUUUAUGUUCAGCUGACUGUGGGAAAUAAUGAAUUUUUUGGGGAAGGGAAGACUCGACAAGCCGCUAGACACAAUGCCGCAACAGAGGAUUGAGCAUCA | 1.64
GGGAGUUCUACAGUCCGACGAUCGUCAUCUGAUUGGAUGAAGACCAUCCCGAGUUACAACCAAACAAAUAGCUCCAUGGACUUUAGAAAUUAUAUGAUGAGAGAUGAGAAUCUGGAACCACUGCCCAAAAACUGGGAAAUGGCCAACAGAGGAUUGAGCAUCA | 0.704
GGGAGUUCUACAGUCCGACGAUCGUUAGUUAUAUAGUUAGUUAUAUUUAAUGACCUCAUUCCUAAGUUACUUUCUCAUUAAUGUAGCUUUCAUUUCUGUUGCUGUUGUUUUAAUAAUAUGAUGUAAUAGAAAGUUUGUGCCAGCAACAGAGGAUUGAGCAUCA | 0.973
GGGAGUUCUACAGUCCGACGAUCAAAUCAAUAGAAUUACAAAUACUAAAGUUGCUGUUGAAAGGGUAUCCAAGUAUGUGUUGGUAGUUACUAAAACAAUUAUAGCUGUUAUUGCCUUGUAUUUAUAGCCCUUGUUUCAGGUUUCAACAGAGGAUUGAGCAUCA | 1.79
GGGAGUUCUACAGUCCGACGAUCAUGUACUUAGAAAAGAAUUCUCCUUCAUCUUCCCAUGGUGAAAUUCUCUAGCAUUGUAUUUAGAUUCUGGAUUUUUAUAAUUCAUGCUUAAUGUAUUAGACAUUUUUAGCCCAUAAUUAACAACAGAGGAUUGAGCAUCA | 1.3
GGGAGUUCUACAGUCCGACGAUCAAGCCCUGUGAAGGUCUACUGACCGCUCACUAUUGUCUGGUAUCUGUAAACACUUCUGUUUAGUCCUUUCAUGGUAUAAUUGAUGUUCUUUAAAACUGUCAGUGUAAAACAGGGCUUAUGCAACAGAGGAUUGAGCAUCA | 0.585

Study 3
Organism: Saccharomyces cerevisiae
Observed: binding
Technique: yeast competitive growth sequencing
Form: peptide
Strain: cyclin A1-Cln2 strain
Sample: peptide tiling library
Direction: direction not given
Molecule | enrichment score
RSLKLDGLLEEN | -0.997
VLLKRLQDVVSERANH | -0.924
RVSGLLSWTLSRVLWL | 0.0145
KSKHEEEEWTDDDLVE | 1.27
KPITLDTTDFQESFVT | 0.547
RDLFDCDFGDLTPLDF | 1.32
TSSAQRRLEIPSGGAD | -0.38
TSPGPVLLHPSPSTTQ | 0.6
ALLRRLQDVANDRGSH | -0.216
IQKKLRFEDTLEFVGF | -1.05
EPKTLFLGAGDFQF | 1.34
KDDDKAWEYEERDRRS | -0.231
SPREGHMMDALYAQVK | 0.303
SDSTVTKLDFDLEP | 0.416
QDYERRLLRQIVIQNE | 0.0633

Study 4
Target: ABI1, truncated, D143A, DHFR fusion (Arabidopsis thaliana)
Technique: DHFR PCA, deep sequencing
Sample: yeast
Notes: methotrexate growth selection, single substitutions
With: (+)-ABA 58 µM
Reference: wild-type fitted maximum
Direction: higher = stronger binding
Parent: PYL1, truncated, DHFR fusion (Arabidopsis thaliana); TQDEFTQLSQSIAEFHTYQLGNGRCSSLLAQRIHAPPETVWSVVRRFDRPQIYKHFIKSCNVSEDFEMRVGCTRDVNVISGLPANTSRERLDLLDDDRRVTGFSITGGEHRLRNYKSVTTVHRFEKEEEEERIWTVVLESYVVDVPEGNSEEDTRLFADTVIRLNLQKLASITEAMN; partner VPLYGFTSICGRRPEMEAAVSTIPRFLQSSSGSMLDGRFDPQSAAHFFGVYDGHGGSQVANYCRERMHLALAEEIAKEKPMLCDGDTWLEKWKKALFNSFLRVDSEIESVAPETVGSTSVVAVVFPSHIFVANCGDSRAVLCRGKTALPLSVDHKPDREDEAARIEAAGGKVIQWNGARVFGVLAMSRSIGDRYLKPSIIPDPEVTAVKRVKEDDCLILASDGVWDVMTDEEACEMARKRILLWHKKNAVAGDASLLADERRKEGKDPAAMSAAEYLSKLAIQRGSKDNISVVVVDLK
Substitution | relative binding score [%]
D144Q | 59.9
W41F | 13.3
P50R | 2.62
A175I | 72.9
F157V | 58.1
V44C | 62.3
D75P | -2.85
G107D | 74.8
S140K | 7.91
Y18D | 53.7
D159V | 9.76
C72G | 65.7
A13P | 34.7
S11P | 81.4
I57G | 3.22
T86A | 77.4
D65G | 84.9

Study 5
Target: Histone acetyltransferase KAT6A, winged helix 2, GST fusion (KAT6A, Homo sapiens, UniProt Q92794, residues 85-181)
Technique: protein binding microarray
Form: double-stranded DNA, one strand shown
Sample: in vitro
Concentration: not given
Notes: 8-mer, flanks averaged, mean of 2 arrays, mostly near background
Reference: not given
Direction: higher = stronger binding
Construct (chain): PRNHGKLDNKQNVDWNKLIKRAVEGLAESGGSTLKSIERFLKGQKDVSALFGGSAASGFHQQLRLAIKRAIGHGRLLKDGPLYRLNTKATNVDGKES
Strand | E-score
TCATGTAA | -0.17
AAACCATG | 0.0145
GAGTGCGA | -0.00785
AATCAATA | 0.125
GAACGGAA | -0.0548
TAGTCGAA | 0.11
TCCCAGGA | -0.0571
AGTCGGCC | -0.0186
AGCATTCA | 0.0495
CCCCAGGA | -0.107
CGTAAATC | -0.00793
CCCACGGG | 0.163
ACCGCTCG | -0.125
ATCGTAAT | -0.199
AACTAGTC | -0.206
CCTTCTGC | 0.0711
CAGTATAC | -0.14

For quick reference, copied from above (study 4):
Substitution | relative binding score [%]
D144Q | 59.9
W41F | 13.3
P50R | 2.62
A175I | 72.9
F157V | 58.1
V44C | 62.3
D75P | -2.85
